Results pooled from the literature.
Lines come from different studies, so protocols differ. Values joined by “and” are separate records of one study, mostly repeats; a detail may differ. Numbers after ± are the reported error.
TOP2A: DNA topoisomerase 2-alpha (TOP2A, Homo sapiens, UniProt P11388)
Tumor necrosis factor receptor superfamily member 9/Nectin-4: Tumor necrosis factor receptor superfamily member 9/Nectin-4 (Homo sapiens, UniProt Q07011+Q96NY8)
T1: dsRNA; chain GCCUCGCUGCCGUCGCCA; chain UGGCGACGGCAGCGAGGC
T2: ssDNA, aptamer; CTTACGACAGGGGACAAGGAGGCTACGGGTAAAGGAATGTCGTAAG

O=c1cc(-c2ccc([N+](=O)[O-])cc2)[nH]c2c(-c3ccc(Cl)cc3)c(Cc3ccccc3)nn12
delta Tm (Sodium channel protein type 8 subunit alpha, C-terminal domain (SCN8A, Homo sapiens, UniProt Q9UQD0); binding, protein thermal shift; 25 µM): 3.5 °C

Cc1ccc(OC[C@H]2CN(CCN3CCc4ccccc43)CCO2)cn1
inhibition (5-hydroxytryptamine receptor 2B (HTR2B, Homo sapiens, UniProt P41595); radioligand binding; concentration not given, with: [3H]LSD): 23.3%

CC(C)[C@H](NC(=O)c1cc(-c2cnn3cc(-c4ccc(OCCN5CCCCC5)cc4)cnc23)cs1)C(F)(F)F
relative inhibition (ROCK2 (human); radiometric kinase; 15 nM; relative to: ROCK2 over ULK1): 0

NC[C@H]1O[C@H](O[C@H]2[C@H](O)[C@@H](O[C@H]3O[C@H](CO)[C@@H](O)[C@H](N)[C@H]3O)[C@H](N)C[C@@H]2N)[C@H](O)[C@@H](O)[C@@H]1O
binding (T1, dsRNA; native PAGE gel shift; 50 mM, room temperature): binds weakly

Nc1ncnc2c1ncn2[C@@H]1O[C@H](COP(=O)(O)OP(=O)(O)O)[C@@H](O)[C@H]1O
Km (Creatine kinase U-type, mitochondrial (CKMT1A, Homo sapiens, UniProt P12532, E265Q); substrate, Kinase-Glo luminescence; pH 7.0, reverse reaction, E227Q mutant, with: second substrate in excess): 13 ± 1 µM

CNc1ncc2c(/C=C/C(=O)N3CCC(OC)CC3)nn(Cc3cccc(C(F)(F)F)c3)c2n1
remaining activity (Discoidin domain-containing receptor 2 (DDR2, Homo sapiens, UniProt Q16832); kinase activity, inhibitor; 1 µM; relative to: untreated control): 99%

Nc1ncnc2c1ncn2[C@@H]1O[C@H](COP(=O)(O)OP(=O)(O)O)[C@@H](O)[C@H]1O
ΔH (GUK1 (Homo sapiens, UniProt Q16774); ITC; molar ratio 3.506): -0.132 kcal/mol

CC(C)(C)c1sc2ncnc(Oc3c(F)cccc3OC(F)(F)F)c2c1-c1ccc(Cl)cc1
maximum response (Mas-related G-protein coupled receptor member X1 (MRGPRX1, Homo sapiens, UniProt Q96LB2); calcium flux, positive allosteric modulator; 100 µM, no orthosteric agonist; relative to: maximum response to agonist): 10%

CCCCCCCC(=O)c1c(O)cc(O)cc1CC(=O)OCC
activation (Nuclear receptor subfamily 4 group A member 1 (NR4A1, Homo sapiens, UniProt P22736); reporter gene, Gal4 hybrid reporter; 10 µM; relative to: vehicle): 0.87 fold

Nc1ncnc2c1ncn2[C@@H]1O[C@H](COP(=O)(O)CP(=O)(O)OP(=O)(O)O)[C@@H](O)[C@H]1O
calcium influx (P2X purinoceptor 1 (P2RX1, Homo sapiens, UniProt P51575, F188L); calcium influx; 100 nM; relative to: ionomycin response): 37.1% and 44.2% and 56.5%

C[C@H]1O[C@@H](O[C@H]2CC[C@@]3(C)[C@@H](CC[C@]4(C)[C@@H]3C=C[C@]35OC[C@@]6(CCC(C)(C)C[C@H]63)[C@@H](O)C[C@]54C)[C@]2(C)CO)[C@H](O)[C@@H](O[C@@H]2O[C@H](CO)[C@@H](O)[C@H](O)[C@H]2O)[C@H]1O
MST normalised fluorescence (NAD-dependent protein deacetylase sirtuin-1 (SIRT1, Homo sapiens, UniProt Q96EB6); binding, microscale thermophoresis; 173 nM): 885 a.u.

C#CCOc1ccccc1N1CCN(C(=O)c2cccc(S(=O)(=O)n3cnc(C4CC4)n3)c2)CC1
spectral count (Cystatin-B (CSTB, Homo sapiens, UniProt P04080); label-free LC-MS/MS chemoproteomics; COLO 205; 100 µM, 4 h, 37 °C): 111

COc1ccc(Cc2nnc(NS(=O)(=O)c3ccc(Cl)cc3Cl)s2)cc1
Kii (Glutathione hydrolase 1 proenzyme, without transmembrane domain (Homo sapiens, UniProt P19440); GSH hydrolysis, uncompetitive inhibitor; 37 °C, binds gamma-glutamyl enzyme, with: GSH 5-20 µM): 950 ± 242 µM

c1ccc(C(NCc2cccnc2)(c2ccccc2)c2ccccc2)cc1
time to peak (Potassium voltage-gated channel subfamily KQT member 1 (KCNQ1, Homo sapiens, UniProt P51787); whole-cell patch clamp; 300 pM): 68 ± 6 ms

Cc1ncsc1-c1ccc(CNC(=O)[C@@H]2C[C@@H](O)CN2C(=O)[C@@H](NC(=O)C2(F)CC2)C(C)(C)C)c(OCCOCCOCCN2CCN(c3cc(-c4ccccc4O)nnc3N)CC2)c1
cooperativity factor alpha (Protein polybromo-1, BD5 (PBRM1, Homo sapiens, UniProt Q86U86); ternary complex binding, TR-FRET competition; with: VCB complex): 6.8

Nc1ncnc2c1ncn2[C@@H]1O[C@H](COP(=O)(O)OP(=O)(O)OP(=O)(O)O)[C@@H](O)[C@H]1O
normalized current (P2X purinoceptor 7 (P2rx7, Rattus norvegicus, UniProt Q64663, R125A); ion current, agonist, two-electrode voltage clamp; Xenopus laevis oocytes; 2.058 µM; relative to: highest concentration response): 0.0219 and 0.019 and 0.13

N#Cc1ccn2c(-c3ccncc3)c(-c3ccc(F)cc3)nc2c1
log2 fold change (Mitogen-activated protein kinase HOG1 (HOG1, Candida albicans, UniProt Q92207); MIB/MS competition binding; Candida albicans cell lysate; 100 nM; relative to: DMSO, lower = stronger binding): -0.221

O=c1nc(SCc2cc(F)cc(C(F)(F)F)c2)nc(SCc2ccc3nc(Cl)ccc3c2)[nH]1
linear DNA (TOP2A; DNA cleavage; 125 µM, replicate 1): 2.76%

CC(=O)N[C@H](C(=O)N[C@@H](CC(N)=O)C(=O)N[C@@H](CCCCN)C(=O)N1CCC[C@H]1C(=O)N[C@@H](CC(C)C)C(=O)N1CCC[C@H]1C(=O)N1CCC[C@H]1C(=O)N[C@@H](CC(C)C)C(=O)N1CCC[C@H]1C(=O)N[C@H](C(=O)N[C@@H](C)C(N)=O)C(C)C)C(C)C
peak area (High osmolarity signaling protein SHO1, SH3 domain (SHO1, Saccharomyces cerevisiae, UniProt P40073); ligand binding, FTIR spectroscopy, measured: asymmetric stretch band A; pH 7.0, SHO1 complex, with: 4 mM peptide): 23 ± 4%

Cc1ccc(C(=O)Nc2ccc3ccccc3c2)o1
reversal potential (Otop1 (Mus musculus, UniProt Q80VM9); ion current, whole-cell voltage ramp; 10 µM, with: NMDG bath solution): 60.5 mV and 60.6 mV and 45.8 mV and 56.1 mV and 59.9 mV and 61.9 mV

CCCC[C@@H]1NC(=O)[C@H](Cc2ccc(O)cc2)NC(=O)[C@H](C)N(C)C(=O)[C@H](CC(=O)O)NC(=O)[C@H](C)NC(=O)[C@H](Cc2ccccc2)NC(=O)[C@@H]2CSCCC(=O)N3CN(CN(C3)C(=O)CCSC[C@H](NC(C)=O)C(=O)N[C@@H](CC(C)(C)C)C(=O)N3CCC[C@H]3C(=O)N[C@@H](CCC(=O)O)C(=O)N[C@H](CCCCNC(=O)CCc3cn(CCOCCOCCOCCN(CCOCCOCCOCCC(=O)N[C@H]4CSCCC(=O)N5CN6CN(C5)C(=O)CCSC[C@H](NC(=O)[C@@H](CC(=O)O)NC(=O)[C@H](Cc5cccc7ccccc57)NC(=O)[C@@H]5CCCN5C4=O)C(=O)N[C@@H](CCSC)C(=O)N[C@@H](CCCCNC(=N)N)C(=O)N[C@@H](CC(=O)O)C(=O)N[C@@H](Cc4c[nH]c5ccccc45)C(=O)N[C@@H](CO)C(=O)N[C@@H]([C@@H](C)O)C(=O)N4CCC[C@H]4C(=O)N4C[C@H](O)C[C@H]4C(=O)N[C@@H](Cc4c[nH]c5ccccc45)C(=O)N[C@H](C(N)=O)CSCCC6=O)CCOCCOCCOCCn4cc(CCC(=O)NCCCC[C@H]5NC(=O)[C@H](CCC(=O)O)NC(=O)[C@@H]6CCCN6C(=O)[C@H](CC(C)(C)C)NC(=O)[C@@H](NC(C)=O)CSCCC(=O)N6CN7CN(C6)C(=O)CCSC[C@H](NC(=O)[C@H](Cc6ccc(O)cc6)NC(=O)[C@@H]6CCCN6C5=O)C(=O)N[C@@H](Cc5ccccc5)C(=O)N[C@@H](C)C(=O)N[C@@H](CC(=O)O)C(=O)N(C)[C@@H](C)C(=O)N[C@@H](Cc5ccc(O)cc5)C(=O)N[C@@H](CCCC)C(=O)N[C@H](C(N)=O)CSCCC7=O)nn4)nn3)C(=O)N3CCC[C@H]3C(=O)N[C@@H](Cc3ccc(O)cc3)C(=O)N2)C(=O)CCSC[C@@H](C(N)=O)NC1=O
Emax (Tumor necrosis factor receptor superfamily member 9/Nectin-4; reporter gene, agonist; HT-1376 coculture with reporter cells; relative to: background): 76 fold

Nc1ncnc2c1ncn2[C@@H]1O[C@H](COP(=O)(O)OP(=O)(O)O)[C@@H](O)[C@H]1O
Kd (T2, ssDNA, aptamer; ITC): 15.6 µM

N[C@@H](CC(=O)O)C(=O)O
ΔTm (Methyl-accepting chemotaxis protein, ligand-binding domain (Pectobacterium atrosepticum, UniProt Q6D6I9); binding, thermal shift; ligand-binding domain): binds

CC(=O)N[C@H](C(=O)N1C[C@H](O)C[C@H]1C(=O)NCc1ccc(-c2scnc2C)cc1)C(C)(C)SCCCCCCNC(=O)C[C@@H]1N=C(c2ccc(Cl)cc2)c2c(sc(C)c2C)-n2c(C)nnc21
cooperativity (VHL/BRD3, BD1; with Elongin B/C (Homo sapiens, UniProt P40337+Q15059); ITC; 25 °C, PROTAC:Brd3^BD1; relative to: Kd binary over Kd ternary): 1.5

Cc1nc(CSc2nc(SCc3ccc(C(C)C)cc3)nc(=O)[nH]2)cs1
linear DNA (TOP2A; DNA cleavage; 7.8 µM, replicate 1): 0%

CCCCCCCCOC(=O)NS(=O)(=O)Nc1ccc(-c2cc3ccccc3[nH]2)cc1OC
kcat (Polyunsaturated fatty acid lipoxygenase ALOX15 (Oryctolagus cuniculus, UniProt P12530); 8 µM, with: linoleic acid): 9.45 ± 0.71 s⁻¹

CCCC[C@@H]1NC(=O)[C@H](Cc2ccc(O)cc2)NC(=O)[C@@H]2CCCN2C(=O)[C@H](CC(=O)O)NC(=O)[C@H](C)NC(=O)[C@H](Cc2ccccc2)NC(=O)[C@@H]2CSCCC(=O)N3CN(CN(C3)C(=O)CCSC[C@H](NC(C)=O)C(=O)N[C@@H](CC(C)(C)C)C(=O)N3CCC[C@H]3C(=O)N[C@@H](CCC(=O)O)C(=O)N[C@H](CCCCNC(=O)CCc3cn(CCOCCOCCOCCOCCOCCC(=O)N[C@H]4CSCCC(=O)N5CN6CN(C5)C(=O)CCSC[C@H](NC(=O)[C@@H](CC(=O)O)NC(=O)[C@H](Cc5cccc7ccccc57)NC(=O)[C@@H]5CCCN5C4=O)C(=O)N[C@@H](CCSC)C(=O)N[C@@H](CCCCNC(=N)N)C(=O)N[C@@H](CC(=O)O)C(=O)N[C@@H](Cc4c[nH]c5ccccc45)C(=O)N[C@@H](CO)C(=O)N[C@@H]([C@@H](C)O)C(=O)N4CCC[C@H]4C(=O)N4C[C@H](O)C[C@H]4C(=O)N[C@@H](Cc4c[nH]c5ccccc45)C(=O)N[C@H](C(N)=O)CSCCC6=O)nn3)C(=O)N3CCC[C@H]3C(=O)N[C@@H](Cc3ccc(O)cc3)C(=O)N2)C(=O)CCSCCNC1=O
Emax (Tumor necrosis factor receptor superfamily member 9/Nectin-4; reporter gene, agonist; HT-1376 coculture with reporter cells; relative to: background): 37 fold

Nc1ccn([C@@H]2O[C@H](COP(=O)(O)OP(=O)(O)OP(=O)(O)O)[C@@H](O)[C@H]2O)c(=O)n1
nucleotide addition rate (DNA-directed RNA polymerase subunit beta' / DNA-directed RNA polymerase subunit beta (rpoC/rpoB, Escherichia coli, UniProt P0A8T7+P0A8V2); RNA extension, rapid quench-flow; Escherichia coli, elongation complex, 6-MI template; 200 µM, 25 °C, fast complex fraction): 81 ± 5 s⁻¹
